Measurements pooled from the literature.
Lines come from different studies, so protocols differ. Values joined by “and” are separate records of one study, mostly repeats; a detail may differ. ± gives the spread as reported.
GLP1R: Glucagon-like peptide 1 receptor (GLP1R, Homo sapiens, UniProt P43220)
UniProt Q14524, sequence (whole entry, looked up): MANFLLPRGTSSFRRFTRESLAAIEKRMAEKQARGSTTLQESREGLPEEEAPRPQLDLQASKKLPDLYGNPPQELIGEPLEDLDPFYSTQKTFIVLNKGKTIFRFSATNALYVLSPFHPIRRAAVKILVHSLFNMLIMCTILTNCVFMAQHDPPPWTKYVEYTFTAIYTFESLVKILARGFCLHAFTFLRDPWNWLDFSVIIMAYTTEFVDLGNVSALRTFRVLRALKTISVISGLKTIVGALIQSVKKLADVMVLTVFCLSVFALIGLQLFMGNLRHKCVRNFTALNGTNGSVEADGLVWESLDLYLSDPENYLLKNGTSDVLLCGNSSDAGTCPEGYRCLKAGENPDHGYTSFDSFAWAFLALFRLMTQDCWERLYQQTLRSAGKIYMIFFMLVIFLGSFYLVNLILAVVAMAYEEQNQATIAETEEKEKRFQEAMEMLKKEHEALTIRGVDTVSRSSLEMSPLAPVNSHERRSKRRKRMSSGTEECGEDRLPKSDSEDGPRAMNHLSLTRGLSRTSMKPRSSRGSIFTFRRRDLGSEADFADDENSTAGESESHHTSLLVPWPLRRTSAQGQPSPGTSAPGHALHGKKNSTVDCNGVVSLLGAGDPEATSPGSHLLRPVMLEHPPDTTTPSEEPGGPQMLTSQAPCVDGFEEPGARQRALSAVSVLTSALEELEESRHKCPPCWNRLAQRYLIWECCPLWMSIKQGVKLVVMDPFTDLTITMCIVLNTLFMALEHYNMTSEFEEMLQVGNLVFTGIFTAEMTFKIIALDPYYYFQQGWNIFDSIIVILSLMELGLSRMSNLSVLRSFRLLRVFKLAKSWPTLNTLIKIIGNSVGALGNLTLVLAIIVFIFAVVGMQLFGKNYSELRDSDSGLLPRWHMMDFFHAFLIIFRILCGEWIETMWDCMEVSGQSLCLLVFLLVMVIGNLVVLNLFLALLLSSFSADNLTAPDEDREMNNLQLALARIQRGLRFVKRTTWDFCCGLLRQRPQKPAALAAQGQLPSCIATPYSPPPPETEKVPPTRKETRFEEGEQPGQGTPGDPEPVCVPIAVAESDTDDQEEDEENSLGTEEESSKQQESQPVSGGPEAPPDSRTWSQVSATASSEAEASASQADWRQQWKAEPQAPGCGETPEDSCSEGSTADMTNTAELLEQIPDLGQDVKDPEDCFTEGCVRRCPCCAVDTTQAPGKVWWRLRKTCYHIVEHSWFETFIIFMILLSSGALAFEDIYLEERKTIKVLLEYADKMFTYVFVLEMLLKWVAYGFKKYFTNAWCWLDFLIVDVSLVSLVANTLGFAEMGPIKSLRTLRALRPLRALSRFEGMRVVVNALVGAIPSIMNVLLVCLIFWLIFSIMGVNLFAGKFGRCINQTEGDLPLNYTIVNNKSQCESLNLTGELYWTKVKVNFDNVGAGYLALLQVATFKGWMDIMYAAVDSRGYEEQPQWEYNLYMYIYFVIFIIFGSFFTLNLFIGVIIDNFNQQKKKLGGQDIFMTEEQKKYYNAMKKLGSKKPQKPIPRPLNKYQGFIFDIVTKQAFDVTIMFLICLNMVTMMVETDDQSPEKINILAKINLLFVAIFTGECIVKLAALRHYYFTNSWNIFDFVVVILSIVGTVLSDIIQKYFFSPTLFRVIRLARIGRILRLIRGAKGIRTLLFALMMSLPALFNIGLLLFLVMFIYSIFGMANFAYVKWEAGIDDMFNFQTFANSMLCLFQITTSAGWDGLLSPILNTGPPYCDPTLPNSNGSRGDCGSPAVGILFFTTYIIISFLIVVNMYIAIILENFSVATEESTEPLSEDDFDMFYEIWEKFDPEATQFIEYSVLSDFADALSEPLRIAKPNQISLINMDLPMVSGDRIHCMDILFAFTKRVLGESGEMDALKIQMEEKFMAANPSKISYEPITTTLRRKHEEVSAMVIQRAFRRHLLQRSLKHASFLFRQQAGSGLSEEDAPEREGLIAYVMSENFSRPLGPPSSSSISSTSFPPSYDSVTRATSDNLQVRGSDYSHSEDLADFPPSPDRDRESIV
UniProt Q16774, sequence (whole entry, unmodified, looked up): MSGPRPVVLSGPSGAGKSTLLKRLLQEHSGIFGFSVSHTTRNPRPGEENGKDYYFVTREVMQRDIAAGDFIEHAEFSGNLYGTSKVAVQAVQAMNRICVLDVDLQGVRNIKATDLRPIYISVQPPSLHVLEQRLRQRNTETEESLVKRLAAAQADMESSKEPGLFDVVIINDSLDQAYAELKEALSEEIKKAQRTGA
UniProt P52564, sequence (whole entry, looked up): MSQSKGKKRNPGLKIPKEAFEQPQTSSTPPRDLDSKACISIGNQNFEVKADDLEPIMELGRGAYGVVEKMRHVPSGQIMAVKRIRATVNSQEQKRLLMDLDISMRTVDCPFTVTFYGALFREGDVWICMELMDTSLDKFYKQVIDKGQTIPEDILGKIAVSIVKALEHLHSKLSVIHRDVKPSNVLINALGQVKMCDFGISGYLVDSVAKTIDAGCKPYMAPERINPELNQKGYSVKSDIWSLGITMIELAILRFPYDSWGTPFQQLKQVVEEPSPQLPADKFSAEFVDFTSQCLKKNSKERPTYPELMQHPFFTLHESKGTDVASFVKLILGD
UniProt P46091, sequence (whole entry, looked up): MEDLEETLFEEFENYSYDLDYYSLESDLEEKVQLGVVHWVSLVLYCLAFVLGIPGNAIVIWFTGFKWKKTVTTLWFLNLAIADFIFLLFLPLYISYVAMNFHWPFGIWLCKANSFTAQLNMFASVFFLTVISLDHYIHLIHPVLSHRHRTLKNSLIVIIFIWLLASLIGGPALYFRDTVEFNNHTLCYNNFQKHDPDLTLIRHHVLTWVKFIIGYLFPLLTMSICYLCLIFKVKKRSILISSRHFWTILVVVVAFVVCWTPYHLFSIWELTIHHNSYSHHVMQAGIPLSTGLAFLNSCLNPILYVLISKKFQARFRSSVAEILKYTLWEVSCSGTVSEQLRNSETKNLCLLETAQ
UniProt Q9UPE1, sequence (whole entry, looked up): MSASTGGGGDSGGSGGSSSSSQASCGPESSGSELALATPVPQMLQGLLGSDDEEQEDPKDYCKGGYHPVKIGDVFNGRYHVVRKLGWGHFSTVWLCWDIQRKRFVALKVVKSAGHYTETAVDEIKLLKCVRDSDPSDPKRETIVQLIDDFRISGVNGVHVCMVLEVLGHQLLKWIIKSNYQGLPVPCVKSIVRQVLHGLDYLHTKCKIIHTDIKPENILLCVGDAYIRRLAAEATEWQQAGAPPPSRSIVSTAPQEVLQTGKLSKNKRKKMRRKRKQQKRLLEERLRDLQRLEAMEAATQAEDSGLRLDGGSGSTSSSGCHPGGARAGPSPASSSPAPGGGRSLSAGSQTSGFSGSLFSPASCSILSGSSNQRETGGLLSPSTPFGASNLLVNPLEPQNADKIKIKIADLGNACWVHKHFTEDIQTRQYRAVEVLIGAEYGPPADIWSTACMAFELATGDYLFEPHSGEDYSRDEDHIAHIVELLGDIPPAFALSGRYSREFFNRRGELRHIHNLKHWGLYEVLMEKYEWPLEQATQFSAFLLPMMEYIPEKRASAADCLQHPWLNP
UniProt Q695T7, sequence (whole entry, looked up): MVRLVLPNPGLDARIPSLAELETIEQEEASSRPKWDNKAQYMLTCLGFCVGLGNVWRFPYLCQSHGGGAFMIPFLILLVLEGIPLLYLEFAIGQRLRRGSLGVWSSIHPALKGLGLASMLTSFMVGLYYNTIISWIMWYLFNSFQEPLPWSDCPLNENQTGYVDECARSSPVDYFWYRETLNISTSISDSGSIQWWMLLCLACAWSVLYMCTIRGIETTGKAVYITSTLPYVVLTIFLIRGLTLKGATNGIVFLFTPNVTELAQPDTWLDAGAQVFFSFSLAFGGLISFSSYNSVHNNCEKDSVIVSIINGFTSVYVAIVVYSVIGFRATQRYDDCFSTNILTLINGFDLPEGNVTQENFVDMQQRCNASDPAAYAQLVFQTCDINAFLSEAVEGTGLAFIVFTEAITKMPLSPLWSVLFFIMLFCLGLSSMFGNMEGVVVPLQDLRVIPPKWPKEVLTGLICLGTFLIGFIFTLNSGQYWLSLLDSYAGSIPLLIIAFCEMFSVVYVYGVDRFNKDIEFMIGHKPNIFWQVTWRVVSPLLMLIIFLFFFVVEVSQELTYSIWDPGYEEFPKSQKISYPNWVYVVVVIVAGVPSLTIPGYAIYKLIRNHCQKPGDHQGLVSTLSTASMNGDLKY
UniProt Q13263, sequence (whole entry, looked up): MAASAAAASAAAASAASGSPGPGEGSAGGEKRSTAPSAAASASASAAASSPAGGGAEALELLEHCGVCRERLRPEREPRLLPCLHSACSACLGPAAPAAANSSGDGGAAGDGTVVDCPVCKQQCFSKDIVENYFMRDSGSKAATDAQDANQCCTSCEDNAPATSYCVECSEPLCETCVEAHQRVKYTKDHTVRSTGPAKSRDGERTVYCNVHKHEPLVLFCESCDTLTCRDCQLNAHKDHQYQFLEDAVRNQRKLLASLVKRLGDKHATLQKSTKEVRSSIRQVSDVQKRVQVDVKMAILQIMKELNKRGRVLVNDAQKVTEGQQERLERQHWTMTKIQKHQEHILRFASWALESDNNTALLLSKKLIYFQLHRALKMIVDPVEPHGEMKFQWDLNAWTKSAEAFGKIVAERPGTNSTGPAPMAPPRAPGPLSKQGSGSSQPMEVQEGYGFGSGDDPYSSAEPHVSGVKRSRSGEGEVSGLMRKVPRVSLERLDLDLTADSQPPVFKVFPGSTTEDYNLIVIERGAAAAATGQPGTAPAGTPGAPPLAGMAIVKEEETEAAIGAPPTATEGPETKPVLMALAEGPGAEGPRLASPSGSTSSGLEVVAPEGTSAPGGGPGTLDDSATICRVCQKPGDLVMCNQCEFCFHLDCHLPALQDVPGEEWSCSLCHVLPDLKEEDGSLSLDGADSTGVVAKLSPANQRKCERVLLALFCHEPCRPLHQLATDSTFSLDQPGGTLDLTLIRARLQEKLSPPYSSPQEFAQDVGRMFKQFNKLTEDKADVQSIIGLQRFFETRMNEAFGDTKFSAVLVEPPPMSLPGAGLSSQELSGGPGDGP

With CCC1(O)CCCN(C(=O)c2ccc(-c3ccc(F)c(NC(=O)CCl)c3)cc2)C1 (stereo not drawn) the protein adduct was 30% (DNA dC->dU-editing enzyme APOBEC-3A (Homo sapiens, UniProt P31941); covalent modifier, intact protein mass spectrometry, measured: adduct +26309 Da; 25 µM, 1 h, 1-fold molar excess).
O=c1nc(SCc2cc(F)cc(C(F)(F)F)c2)nc(SCc2ccc3nc(OCCN4CCOCC4)ccc3c2)[nH]1 gave a linear DNA of 0% (TOP2A (Homo sapiens, UniProt P11388); DNA cleavage; 125 µM, replicate 2).
With Nc1nc2c(ncn2[C@@H]2O[C@H](COP(=O)(O)O)[C@@H](O)[C@H]2O)c(=O)[nH]1 the reaction rate was 0.288 s⁻¹ and 0.537 s⁻¹ and -0.0584 s⁻¹ (GUK1 (Homo sapiens, UniProt Q16774, R41A); enzyme activity, NADH-coupled; 7.812 µM).
CCN(CCO)CCCC(C)Nc1ccnc2cc(Cl)ccc12 (stereo not drawn) — result for “activation slope factor”: 5.06 mV/e-fold and 2.43 mV/e-fold and 4.17 mV/e-fold (SCN5A (Homo sapiens, UniProt Q14524); sodium current, whole-cell patch clamp; 300 µM, without ATX-II).
Under “fold potency loss”, CC[C@H](C)[C@H](NC(=O)[C@H](Cc1ccccc1)NC(=O)[C@H](CCC(=O)O)NC(=O)[C@H](CCCNC(=N)N)NC(=O)[C@H](C)NC(=O)[C@H](C)NC(=O)[C@H](CCC(N)=O)NC(=O)[C@H](CCC(=O)O)NC(=O)[C@H](CCC(=O)O)NC(=O)[C@H](CC(C)C)NC(=O)[C@H](Cc1ccc(O)cc1)NC(=O)[C@H](CO)NC(=O)[C@H](CO)NC(=O)[C@@H](NC(=O)[C@H](CC(=O)O)NC(=O)[C@H](CO)NC(=O)[C@@H](NC(=O)[C@H](Cc1ccccc1)NC(=O)[C@@H](NC(=O)CNC(=O)[C@H](CCC(=O)O)NC(=O)[C@H](C)NC(=O)CCc1cnc[nH]1)[C@@H](C)O)[C@@H](C)O)C(C)C)C(=O)N[C@@H](C)C(=O)N[C@@H](Cc1c[nH]c2ccccc12)C(=O)N[C@@H](CC(C)C)C(=O)N[C@H](C(=O)N[C@@H](CCCCNC(=O)COCCOCCNC(=O)COCCOCCNC(=O)CC[C@H](NC(=O)CCCCCCCCCCCCCCCCC(=O)O)C(=O)O)C(=O)NCC(=O)N[C@@H](CCCNC(=N)N)C(=O)N[C@@H](CCCCNc1c(NCCCCCN(O)C(=O)CCC(=O)NCCCCCN(O)C(=O)CCC(=O)NCCCCCN(O)C(C)=O)c(=O)c1=O)C(=O)NCC(=O)NCC(=O)N[C@@H](CO)C(=O)N[C@@H](CCCCNc1c(NCCCCCN(O)C(=O)CCC(=O)NCCCCCN(O)C(=O)CCC(=O)NCCCCCN(O)C(C)=O)c(=O)c1=O)C(=O)NCC(=O)NCC(=O)N[C@@H](CO)C(=O)N[C@@H](CCCCNc1c(NCCCCCN(O)C(=O)CCC(=O)NCCCCCN(O)C(=O)CCC(=O)NCCCCCN(O)C(C)=O)c(=O)c1=O)C(=O)NCC(=O)NCC(=O)N[C@@H](CO)C(=O)N[C@@H](CCCCNc1c(NCCCCCN(O)C(=O)CCC(=O)NCCCCCN(O)C(=O)CCC(=O)NCCCCCN(O)C(C)=O)c(=O)c1=O)C(=O)O)C(C)C is recorded as 3.7 (GLP1R; agonist, CRE luciferase reporter; BHK cells; metal-free DFO conjugate, added: 1% HSA; baseline: parent peptide).
With CC(=O)N1CC(C(=O)Nc2ccc([C@H]3[C@@H](F)[C@@H](F)C[C@@H](F)[C@H]3F)cc2)C1 the hepatic clearance was 6.2 mL/min/kg (hepatocyte stability; cryopreserved human hepatocytes; 1 µM).
CC[C@@H]1[C@H](F)C(=O)N[C@@H]1COc1nccc2cc(C(N)=O)c(OC)cc12 gave an inhibition of -20.6% (MAP2K6 (Homo sapiens, UniProt P52564); ATP-site probe binding, ActivX profiling; THP-1 cell lysate; 0.2 mM, Lys1 site).
COc1cc(Nc2ncc3c(n2)-c2ccc(Cl)cc2C(c2c(F)cccc2OC)=NC3)ccc1C(=O)O gave a remaining activity of 94% (PDGFRA; kinase activity; 1 µM).
For CC[C@H](C)[C@H](NC(=O)[C@H](C)NC(=O)[C@H](CC(=O)O)NC(C)=O)C(=O)N[C@H](C(=O)N[C@@H](CCC(N)=O)C(=O)N[C@@H](CCSC)C(=O)N[C@H](C(=O)N[C@H](C(=O)N[C@@H](CCC(=O)O)C(=O)N[C@@H](CC(C)C)C(=O)N[C@@H](CC(C)C)C(=O)N[C@@H](CCCCN)C(=O)N[C@@H](CCCNC(=N)N)C(=O)N[C@H](C(=O)NCC(=O)N[C@@H](CC(=O)O)C(=O)N[C@@H](CCC(N)=O)C(=O)N[C@@H](Cc1c[nH]c2ccccc12)C(=O)N[C@@H](CCC(=O)O)C(=O)N[C@@H](CCC(=O)O)C(=O)N[C@@H](CCC(=O)O)C(=O)N[C@@H](CCC(N)=O)C(=O)N[C@@H](CO)C(=O)N[C@@H](CC(C)C)C(=O)N[C@@H](C)C(N)=O)C(C)C)C(C)C)[C@@H](C)CC)[C@@H](C)CC, the koff was 0.14 s⁻¹ (BAK1 (Homo sapiens, UniProt Q16611); binding, bio-layer interferometry; pH 7.5, 2% DMSO).
The FLuc activity of C=C1CN(S(=O)(=O)c2ccc(C)cc2)CCCN(Cc2ccccc2)CCCN(S(=O)(=O)c2ccc(C)cc2)C1 is reported as 1 (CD4 signal peptide FLuc; HEK293 reporter-transfected; concentration not given, 2 h, unit not given, added: cycloheximide; baseline: mock).
CC[C@H](C)[C@H](NC(=O)[C@H](Cc1ccccc1)NC(=O)[C@H](CCC(=O)O)NC(=O)[C@H](CCCNC(=N)N)NC(=O)[C@H](C)NC(=O)[C@H](C)NC(=O)[C@H](CCC(N)=O)NC(=O)[C@H](CCC(=O)O)NC(=O)[C@H](CCC(=O)O)NC(=O)[C@H](CC(C)C)NC(=O)[C@H](Cc1ccc(O)cc1)NC(=O)[C@H](CO)NC(=O)[C@H](CO)NC(=O)[C@@H](NC(=O)[C@H](CC(=O)O)NC(=O)[C@H](CO)NC(=O)[C@@H](NC(=O)[C@H](Cc1ccccc1)NC(=O)[C@@H](NC(=O)CNC(=O)[C@H](CCC(=O)O)NC(=O)[C@H](C)NC(=O)CCc1cnc[nH]1)[C@@H](C)O)[C@@H](C)O)C(C)C)C(=O)N[C@@H](C)C(=O)N[C@@H](Cc1c[nH]c2ccccc12)C(=O)N[C@@H](CC(C)C)C(=O)N[C@H](C(=O)N[C@@H](CCCCNc1c(NCCCCCN(O)C(=O)CCC(=O)NCCCCCN(O)C(=O)CCC(=O)NCCCCCN(O)C(C)=O)c(=O)c1=O)C(=O)NCC(=O)N[C@@H](CCCNC(=N)N)C(=O)N[C@@H](CCCCNC(=O)COCCOCCNC(=O)COCCOCCNC(=O)CC[C@H](NC(=O)CCCCCCCCCCCCCCCCC(=O)O)C(=O)O)C(=O)NCC(=O)NCC(=O)N[C@@H](CO)C(=O)N[C@@H](CCCCNc1c(NCCCCCN(O)C(=O)CCC(=O)NCCCCCN(O)C(=O)CCC(=O)NCCCCCN(O)C(C)=O)c(=O)c1=O)C(=O)O)C(C)C — result for “fold potency loss”: 4.2 (GLP1R; agonist, CRE luciferase reporter; BHK cells; Zr-loaded DFO conjugate, added: 0% HSA; baseline: parent peptide).
For COc1cccc(-n2nc3c4cc(Cl)ccc4[nH]cc-3c2=O)c1, the efficacy was 118 ± 14.3% (Gamma-aminobutyric acid receptor subunit alpha-6/beta-3, with delta subunit (Gabra6/Gabrb3, Rattus norvegicus, UniProt P30191+P63079); ion current, modulator, two-electrode voltage clamp; 1 µM, α6β3δ receptor, added: GABA EC3-10).
For Cc1cccc(N2CC(C(=O)O)CC2=O)c1 (stereo not drawn), the fold enrichment was 0.957 (Transcription intermediary factor 1-beta, PHD-bromodomain (TRIM28, Homo sapiens, UniProt Q13263); binding, affinity selection mass spectrometry; baseline: other proteins in batch).
For O=C(O)C1CCCNC1 (stereo not drawn), “normalised MST signal” read -0.0501 (SLC6A6 (Homo sapiens, UniProt P31641, G62A); binding, microscale thermophoresis; 488 nM, room temperature, added: 50 nM labelled protein; higher = more binding).
CN1CCN(c2cc(-c3ccncc3)c(-c3ccc4ccccc4c3)nn2)CC1 gave an activation of -9.8% (MC5R (Homo sapiens, UniProt P33032); agonist, FLIPR; 12.5 µM).
For Nc1ncnc2c1ncn2[C@@H]1O[C@H](CSCC[C@H](N)C(=O)O)[C@@H](O)[C@H]1O, “ΔH of binding” read -3.53 ± 0.622 kcal/mol (O-methyltransferase (Sorghum bicolor, UniProt A0A1B6PFV1); isothermal titration calorimetry; concentration not given, apo protein).
CC(C)C[C@@H](C=O)NC(=O)[C@H](CC(C)C)NC(=O)[C@H](CC(C)C)NC(=O)OCc1ccccc1 — result for “luminescence signal reduction”: -1.61% (NanoBiT HiBiT/LgBiT luciferase; inhibitor, HiBiT luminescence counterscreen; conditioned medium only; 1.66 µM, 24 h; baseline: vehicle).
CCCCCCCCCCCCCCCCCCc1ccc(O)cc1: “number of binding sites” roughly 0.92 (Albumin (ALB, Bos taurus, UniProt P02769); fluorescence quenching; concentration not given, 37 °C).
CCN1CCC[C@H]1CNC(=O)c1c(O)c(Cl)cc(Cl)c1OC — result for “log2 fold change”: 0.051 (CMKLR2 (Homo sapiens, UniProt P46091); β-arrestin recruitment, TANGO luminescence, measured: GPR1; concentration not given; baseline: basal luminescence).
Under “log2 fold change”, Cn1cc(-c2ccc(-c3cncc(Cl)c3N3CCC4(CCNC4=O)CC3)cc2)cn1 is recorded as 2.11 (COLO 205; gene expression, microarray, measured: RPL37 mRNA; concentration not given, 2 h; baseline: untreated cells).
CCOC(=O)C1=C(CN2CCC[C@@H]2C(=O)Nc2ccc(B(O)O)cc2)NC(c2nccs2)=N[C@H]1c1ccc(F)cc1Br: “intracellular capsid protein level” “decreased” (Capsid protein (C, Hepatitis B virus genotype D subtype ayw, UniProt P03146); immunoblot; HepG2 expressing HA-HBc, Hepatitis B virus; concentration not given, 3 days, non-toxic concentrations).
CCNC(=O)/C=C/c1cccc(Br)c1: “remaining transport activity” 0.0295 (SLC6A19 (Homo sapiens, UniProt Q695T7); inhibitor, FLIPR membrane potential; CHO-BC cells; 100 µM, unit not given; baseline: no inhibitor).
NC(=O)CCNC(=O)c1ccc([C@H]2[C@@H](F)[C@@H](F)C[C@@H](F)[C@H]2F)cc1 has a hepatic clearance of 10 mL/min/kg (hepatocyte stability; cryopreserved rat hepatocytes; 1 µM).
COc1cc(F)ccc1-c1ncnc(Nc2cccc(C[S@](C)(=N)=O)c2)n1 has a remaining activity of 111% (SRPK3 (Homo sapiens, UniProt Q9UPE1); kinase activity; 10 µM, added: 10 µM ATP).
